Published values gathered from unrelated publications.
Each line is one published result; not all experiments were run side by side. ± gives the spread as reported.

SMILES	target or system	assay	test system	setting	how to read	endpoint	result
Cc1ccc(NC(=O)c2ccc(CN3CCC(N(C)C)C3)c(C(F)(F)F)c2)cc1N1Cc2cnc(Nc3cnn(C)c3)nc2N(C)C1=O (stereo not drawn)	HepG2 (FGFR4 overexpressing)	cell proliferation, CellTiter-Glo		72 h		GI50	405 ± 150 nM
Cc1cc(OCCCc2c3n(c4c(-c5c(C)nn(C)c5C)c(Cl)ccc24)CCCN(c2cc(C(=O)O)cc4c2ccn4C)C3=O)cc(C)c1Cl	K562	cell growth		72 h, 10% FBS		GI50	11500 ± 1500 nM
CCCCCCCCCCCCCC[C@@H](O)[C@@H](O)[C@H](CO[C@H]1O[C@H](CO)[C@H](O)[C@H](O)[C@H]1O)NC(=O)CCCCCCCCCCCCCCc1ccccc1	human Vα24+ NKT cells	agonist, ELISA		10 ng/mL, 24 h, unit not given, added: CD1d-transfected HeLa cells	reference: α-GalCer	IL-4 secretion	0.71 ± 0.1
Nc1ccc2cc(N)ncc2c1	LX-2	qPCR, refers to: IFN-γ		concentration not given, added: TGF-β1		mRNA level	increased
Cc1ncsc1-c1ccc([C@H](C)NC(=O)[C@@H]2C[C@@H](O)CN2C(=O)[C@@H](NC(=O)CCCCCCC(=O)N2CCN(C[C@]3(C)CCC(c4ccc(Cl)cc4)=C(CN4CCN(c5ccc(C(=O)NS(=O)(=O)c6ccc(N[C@H](CCN7CCOCC7)CSc7ccccc7)c(S(=O)(=O)C(F)(F)F)c6)cc5)CC4)C3)CC2)C(C)(C)C)cc1			STAM mice NASH-HCC model, liver	day 150, treated days 45-90		NAFLD to HCC progression	no effect
COC(=O)[C@@]1(C)C=C(C(=O)Nc2cccc(C(=O)NC34CC(Nc5nccc(-c6cccnc6)n5)(C3)C4)c2)C(=O)CC1	HEK293 AP1 reporter cells	reporter gene, inhibitor, luciferase reporter		3 µM, 6 h, unit not given, added: PMA	reference: PMA-stimulated	AP1 reporter activity	0.215
CN(C)C(=O)Cn1cc(-c2ccc(-c3cncc4ccncc34)cc2)cn1	HL-60	flow cytometry		concentration not given, 24 h		CD33 surface level	no effect
C=CC(=O)Nc1cccc(N(C(=O)OCc2ccc(F)cc2)c2ccnc(Nc3ccn(C)n3)n2)c1	Ba/F3 HER2 YVMA insertion	cell growth		inactive means EC50 above 10 µM		EC50	31 ± 3.4 nM
COC(=O)[C@@H]1C(C=Nc2ccccc2O)=Cc2cc3c(cc2[C@H]1c1cc(OC)c(OC)c(OC)c1)OCO3	Leishmania infantum	Alamar Blue	HepG2		reference: CC50 HepG2 over EC50 amastigotes	selectivity index	0.1
CC(=NN=c1[nH]c2cc(F)c(F)cc2n1C)c1ccc(F)cn1	triple-negative breast cancer PDX organoids	organoid growth, inhibitor		two weeks		effective concentration	62.5 nM
CCn1c(-c2cc(NC(=O)c3cnccn3)n[nH]2)cc2ccc(OC)cc21	N2a transfected with HTT	HTT aggregation		12 h		optimal effective concentration	0.1 µM
CC[C@@H](C)[C@H](N)C(=O)N1Cc2ccc(F)cc2C1	NOMO-1	cell viability, CellTiter-Glo				IC50	300 nM
CC(C)CN(CC(=O)N(CC(=O)N(CC(=O)N(CC(=O)N(CC(=O)N(CC(=O)N(CC(N)=O)Cc1ccccc1)Cc1ccccc1)CC(C)C)Cc1ccccc1)Cc1ccccc1)CC(C)C)C(=O)CNCCCCN	THP-1 derived macrophages	ELISA		2, 10, 50 µM, 72 h, added: LPS 2 ng/mL		IL-1β, IL-6, IL-8 release	decreased
CCOc1ccc(S(=O)(=O)NC(=O)Cc2ccc(I)cc2)cc1Br	THP-1	CXCL10 secretion	cell supernatant	100 µM		inhibition	71%
COCCCn1nc(-c2ccc(CC(=O)Nc3cc(C(C)(C)C)on3)cc2)c2c(N)ncnc21	LC-2/ad (CCDC6-RET fusion)	cell viability				EC50	16 nM
Cc1nn(C)c2c(C(C(=O)O)N3CC(OCCCCc4ccc5c(n4)NCCC5)C3)cccc12 (stereo not drawn)	PAH PASMCs	Western blot, refers to: Src Tyr416				Src phosphorylation	decreased
COC(=O)[C@@H]1C(C=Nc2cncnc2N)=Cc2cc3c(cc2[C@H]1c1cc(OC)c(OC)c(OC)c1)OCO3	Leishmania infantum	iRFP fluorescence	mouse splenocytes infected, amastigote, iRFP, ex vivo splenic explant	48 h		EC50	67400 ± 2000 nM

SMILES	target or system	assay	test system	setting	how to read	endpoint	result
CCCCCCCCCCCCCC[C@@H](O)[C@@H](O)[C@H](CO[C@H]1O[C@H](CO)[C@H](O)[C@H](O)[C@H]1O)NC(=O)CCCCCCCCCCc1ccc(C(F)(F)F)cc1	human Vα24+ NKT cells	agonist, ELISA		10 ng/mL, 24 h, unit not given, added: CD1d-transfected HeLa cells	reference: α-GalCer	IFN-γ secretion	1.65 ± 0.2
CC(=O)N1CCN(c2ccc(Nc3ncc4c(n3)N(C)C(=O)N(c3cc(NC(=O)c5cccc(C(F)(F)F)c5)ccc3C)C4)cn2)CC1	HepG2 (FGFR4 overexpressing)	cell proliferation, CellTiter-Glo		72 h		GI50	369 ± 160 nM
O=C(N/N=C/c1ccc(Sc2ncccn2)o1)c1cccc(Br)c1	D458 medulloblastoma	cell growth				GI50	> 100000 nM
O=C(NNC(=S)Nc1cccc(C(F)(F)F)c1)c1cccn1-c1ccc(F)cc1	HeLa expressing tau-0N4R	western blot, refers to: phosphorylated tau		concentration not given		time to p-tau reduction	1 h
CCCCCCCCCCCCCC[C@@H](O)[C@@H](O)[C@H](CO[C@H]1O[C@H](CO)[C@H](O)[C@H](O)[C@H]1O)NC(=O)CCCCCc1ccccc1	human Vα24+ NKT cells	agonist, ELISA		10 ng/mL, 24 h, unit not given, added: CD1d-transfected HeLa cells	reference: α-GalCer	IFN-γ secretion	1.12 ± 0.08
CN1c2ccc(F)cc2C(=O)N2CCc3c([nH]c4ccc(OCc5cccc(C(=O)NO)c5)cc34)C21 (stereo not drawn)	HCT-116, MCF7, A549 cells	CCK-8		concentration not given		antiproliferative activity	inactive
CCOc1ccccc1Nc1nnc(SCC(=O)Nc2cc(F)ccc2F)s1	A549 spheroids with human PBMCs			10 µM, 48 h, E:T 5:1, added: anti-CD3 0.3 µg/mL		IFN-γ level	35 ± 5 pg/mL
CC(=O)N1CCN(c2ccc(Nc3ncc4c(n3)N(C)C(=O)N(c3cc(NC(=O)c5ccc(CN6CCC(N(C)C)C6)c(C(F)(F)F)c5)ccc3C)C4)cn2)CC1 (stereo not drawn)	SK-HEP1	colony formation, inhibitor, soft agar		5 µM, 3 weeks		inhibition	40%
Cc1ccccc1C(C(=O)NC1CCCCC1)N(C(=O)Cn1ccnc1C)c1cccc([125I])c1 (racemic)	IDH1 R132H astrocytoma cells	cell uptake		no-carrier-added radiotracer	reference: mutant over wild-type cells	uptake ratio	1.7 to 2.1 fold
C=CC(=O)N1CCC(c2cc(Nc3cc4n(n3)CCOC4)c3ncnn3c2)C1 (single isomer, unassigned)	TMD8	calcium flux, FLIPR		2 h preincubation, added: anti-IgM		maximum inhibition	8.9%
CCOc1cc(C(C)(C)C)ccc1C1=N[C@@H](c2ccc(Cl)cc2)[C@@H](c2ccc(Cl)cc2)N1C(=O)N1CCN(CC(=O)NCCOCCOCCOCCNC(=O)CN2CCN(C(=O)N3C(c4ccc(C(C)(C)C)cc4OCC)=N[C@H](c4ccc(Cl)cc4)[C@@H]3c3ccc(Cl)cc3)CC2=O)C(=O)C1	HCT-116 p53 wild type	cell growth, CCK-8				IC50	9900 ± 1000 nM
Cc1ccc(NC(=O)c2cccc(C(F)(F)F)c2)cc1N1Cc2cnc(Nc3cnn(C)c3)nc2N(C)C1=O	Huh-7 (FGFR4 overexpressing)	cell proliferation, CellTiter-Glo		72 h		GI50	20 nM
CCCCCCCCCCCCCC[C@@H](O)[C@@H](O)[C@H](CO[C@H]1O[C@H](CO)[C@H](O)[C@H](O)[C@H]1O)NC(=O)CCCCCCCCCc1ccccc1	human Vα24+ NKT cells	agonist, ELISA		10 ng/mL, 24 h, unit not given, added: CD1d-transfected HeLa cells	reference: α-GalCer	IFN-γ secretion	0.86 ± 0.06
Cc1cc(Nc2ncc3c(n2)N(C)C(=O)N(c2cc(NC(=O)c4cccc(C(F)(F)F)c4)ccc2C)C3)n(C)n1	Hep3B (FGFR4 overexpressing)	cell proliferation, CellTiter-Glo		72 h		GI50	586 ± 170 nM
CCCCCCCCCCCCCC[C@@H](O)[C@@H](O)[C@H](CO[C@H]1O[C@H](CO)[C@H](O)[C@H](O)[C@H]1O)NC(=O)CCCCCCCCCCc1ccccc1	human Vα24+ NKT cells	agonist, ELISA		10 ng/mL, 24 h, unit not given, added: CD1d-transfected HeLa cells	reference: α-GalCer	IL-4 secretion	0.87 ± 0.28
CN1CCN(c2ccc(-c3cccc(CN4CCN(CCNC(=O)CCCCCCCNc5cccc6c5C(=O)N(C5CCC(=O)NC5=O)C6=O)CC4)c3)cc2NC(=O)c2c[nH]c(=O)cc2C(F)(F)F)CC1 (stereo not drawn)	MV4;11	RNA-seq		0.5 µM, 4 d, unit not given	reference: DMSO	down-regulated genes	312

A few entries again:
SMILES	target or system	assay	test system	setting	how to read	endpoint	result
CCCCCCCCCCCCCC[C@@H](O)[C@@H](O)[C@H](CO[C@H]1O[C@H](CO)[C@H](O)[C@H](O)[C@H]1O)NC(=O)CCCCCCCCCc1ccccc1	human Vα24+ NKT cells	agonist, ELISA		10 ng/mL, 24 h, unit not given, added: CD1d-transfected HeLa cells	reference: α-GalCer	IFN-γ secretion	0.86 ± 0.06
CCCCCCCCCCCCCC[C@@H](O)[C@@H](O)[C@H](CO[C@H]1O[C@H](CO)[C@H](O)[C@H](O)[C@H]1O)NC(=O)CCCCCCCCCCc1ccc(C(F)(F)F)cc1	human Vα24+ NKT cells	agonist, ELISA		10 ng/mL, 24 h, unit not given, added: CD1d-transfected HeLa cells	reference: α-GalCer	IFN-γ secretion	1.65 ± 0.2
COCCCn1nc(-c2ccc(CC(=O)Nc3cc(C(C)(C)C)on3)cc2)c2c(N)ncnc21	LC-2/ad (CCDC6-RET fusion)	cell viability				EC50	16 nM
